Measurements of several laboratories.
Numbered parts are unrelated; each lists some results of a single study. Changes are numbered by the printed parent chain.

Sample 1
Target: CREBZF, bZIP domain (human)
Technique: DHFR protein complementation
Matrix: yeast
Setting: single substitutions, most at no-binding floor
Relative to: wild-type JUN-FOS pair
Reading: higher = stronger binding
Measurement: binding fitness
Starting sequence: JUN, bZIP domain (human); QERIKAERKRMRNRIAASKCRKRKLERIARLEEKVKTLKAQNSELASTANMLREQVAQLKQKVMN; partner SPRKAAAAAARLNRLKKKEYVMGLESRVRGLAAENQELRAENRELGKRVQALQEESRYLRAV
Change = V35R; result = -1.47 natural log
Change = A46C; result = -1.38 natural log
Change = A57W; result = -1.45 natural log
Change = S47P; result = -1.51 natural log
Change = E33M; result = -1.54 natural log
Change = Q55M; result = -1.23 natural log
Change = M51D; result = -1.35 natural log
Change = L52F; result = -1.58 natural log
Change = L59H; result = -1.54 natural log

Sample 2
Target: ABI1, truncated, D143A, DHFR fusion (Arabidopsis thaliana)
Technique: DHFR PCA, deep sequencing
Matrix: yeast
Setting: methotrexate growth selection, single substitutions
With: (+)-ABA 17 µM
Relative to: wild-type fitted maximum
Reading: higher = stronger binding
Measurement: relative binding score
Starting sequence: PYL1, truncated, DHFR fusion (Arabidopsis thaliana); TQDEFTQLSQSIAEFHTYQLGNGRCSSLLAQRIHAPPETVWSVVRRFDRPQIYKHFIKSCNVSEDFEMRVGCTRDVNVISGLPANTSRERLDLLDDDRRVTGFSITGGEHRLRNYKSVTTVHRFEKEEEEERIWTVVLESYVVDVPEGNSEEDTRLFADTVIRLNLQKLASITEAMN; partner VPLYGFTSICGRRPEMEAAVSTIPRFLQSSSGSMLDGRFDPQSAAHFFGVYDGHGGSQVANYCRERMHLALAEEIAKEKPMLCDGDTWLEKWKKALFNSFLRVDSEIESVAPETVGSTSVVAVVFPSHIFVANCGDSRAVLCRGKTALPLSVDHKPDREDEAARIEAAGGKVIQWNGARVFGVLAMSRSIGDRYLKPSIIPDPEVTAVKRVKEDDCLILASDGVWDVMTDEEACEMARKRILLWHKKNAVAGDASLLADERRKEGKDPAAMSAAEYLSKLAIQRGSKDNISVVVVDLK
Change = R90T; result = 68.5%
Change = S59T; result = 82.5%
Change = S59H; result = 67.2%
Change = R132W; result = 54.6%
Change = I172N; result = 16.2%
Change = W134T; result = 100%
Change = V43N; result = 7.43%
Change = V142C; result = 82.5%
Change = R123T; result = 87.2%
Change = D97I; result = 84%
Change = V121F; result = -2.05%
Change = F47S; result = -6.57%
Change = P146T; result = 19.4%
Change = G81K; result = 2.22%
Change = V40A; result = 14.7%

Sample 3
Target: CCNB1, cyclin fold, Cln2 fusion (human)
Technique: yeast growth competition, sequencing
Matrix: yeast
Setting: weak parent motif
Relative to: not given
Reading: higher = stronger binding
Measurement: normalised enrichment score
Starting sequence: DOT1L docking peptide (human); SEAKRRIVFTITT
Change = SEAARRIVFTITT [K4A]; result = 0.0216
Change = SEAKARIVFTITT [R5A]; result = 0.0779
Change = SEAKRRIVFTIAT [T12A]; result = 0.334
Change = SEAKRAIVFTITT [R6A]; result = -0.304
Change = SEAKRRIVFAITT [T10A]; result = 0.143
Change = SEAKRRIVFTITA [T13A]; result = 0.288

Other studies, line by line
Substance = PhoQ, residues 284 288 289 292 302 303 SVTLVV; target = PhoP, residues 12 14 15 18 19 ICWRQ (Escherichia coli, UniProt P23836); assay = Sort-seq, item: YFP reporter; test system = E. coli; conditions = PhoQ-PhoP variant library, with: 10 µM Mg2+; scale = relative to: high Mg2+ state, higher = stronger signaling; measurement = fold induction; result = 7.01
